Measured values pooled from the literature.
Each numbered part is a random draw from the data of one study; scales do not carry over between parts.

Sample 1
Target: Ras GTPase-activating protein-binding protein 1, C-terminal RGG region (G3BP1, Homo sapiens, UniProt Q13283)
Chain of UniProt Q13283 (whole entry, looked up): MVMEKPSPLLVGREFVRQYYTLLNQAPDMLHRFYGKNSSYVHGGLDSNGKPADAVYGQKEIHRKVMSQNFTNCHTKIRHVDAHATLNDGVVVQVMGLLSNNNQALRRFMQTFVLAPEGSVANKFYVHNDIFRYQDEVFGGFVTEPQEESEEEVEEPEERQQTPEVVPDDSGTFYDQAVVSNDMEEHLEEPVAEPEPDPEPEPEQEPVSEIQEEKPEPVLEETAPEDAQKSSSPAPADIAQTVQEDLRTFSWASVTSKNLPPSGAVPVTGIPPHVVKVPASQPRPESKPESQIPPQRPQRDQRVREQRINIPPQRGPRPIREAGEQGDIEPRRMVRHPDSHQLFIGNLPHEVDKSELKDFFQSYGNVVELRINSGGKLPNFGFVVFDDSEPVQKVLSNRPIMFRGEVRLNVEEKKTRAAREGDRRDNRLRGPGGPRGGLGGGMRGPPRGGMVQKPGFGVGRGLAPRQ
Technique: RNA Bind-n-Seq
Molecule type: RNA
Sample: in vitro
Concentration: 1 µM
Setting: whole 134-nt RNA, ends assumed
Together with: 150 mM KCl
Baseline: input library
Direction: higher = stronger binding
Strand	log2 enrichment
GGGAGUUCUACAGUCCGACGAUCCAAGUCCUGUGCUACACAUCGUAUGUACCGAAUCGGGGUGGGGUGGGGUUUGGGGAAAGUAUUAUGUUACGCCGUUCGGAUCUGCACUUCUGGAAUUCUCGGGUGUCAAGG	2.26
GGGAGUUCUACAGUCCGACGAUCUCCUCAAGUCCUGUGCUACACAUCGUAUGUACCGAAUCGGGUGGGGUGGUGGAAAGUAUUAUGUUACGCCGUUCGGAUCUGCACUUCCAGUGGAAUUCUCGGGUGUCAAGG	0.0939
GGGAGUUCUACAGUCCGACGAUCCAAGUCCUGUGCUACACAUCGUAUGUACCGAAUCGGGUUUUUGGGAAAGGGAGGGAAAGUAUUAUGUUACGCCGUUCGGAUCUGCACUUCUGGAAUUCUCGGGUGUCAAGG	1.52
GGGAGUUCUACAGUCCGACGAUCCACAGACAACACGCUCCCACACAGACACAGAGGGAAGGGGUUGGGAUGGGGACAGGGUGCACAGCAGGGCGGGGUAGGACCCCAGCCCCUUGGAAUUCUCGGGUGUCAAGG	-0.15
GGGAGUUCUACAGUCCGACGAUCCUGUGCUACACAUCGUAUGUACCGAAUCGGGGUUUUUUUGGGGUUUGGGGUUUUUUUGGGGAAAGUAUUAUGUUACGCCGUUCGGAUCUGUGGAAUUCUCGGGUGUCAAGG	0.192
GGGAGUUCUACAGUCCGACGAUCUAACUUUAGAGGAGGAUCUGAUGGAUAUGGCAGUGGACGUGGAUUUGGGGAUGGCUAUAAUGGGUAUGGAGGAGGAUCUGGAGGUGGCAAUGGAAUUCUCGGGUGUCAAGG	-0.201
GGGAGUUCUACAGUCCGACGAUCUAACUUUAGAGGAGGAUCUGAUGGAUAUGGCAGUGGACGUGGAUUUGGGGAUGGCUAUAAUGGGUAUGGAGGAGGACCUGGAGGUGGCAGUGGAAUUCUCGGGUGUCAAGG	-0.765
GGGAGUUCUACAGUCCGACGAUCCCUCAAGUCCUGUGCUACACAUCGUAUGUACCGAAUCGGGGUGGUGGUGGGGAAAGUAUUAUGUUACGCCGUUCGGAUCUGCACUUCCAGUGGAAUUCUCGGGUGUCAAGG	-0.213
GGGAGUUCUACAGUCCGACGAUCGUCCUGUGCUACACAUCGUAUGUACCGAAUCGGGAAAAAGGGUUUGGGAAAAAAAGGGAAAGUAUUAUGUUACGCCGUUCGGAUCUGCACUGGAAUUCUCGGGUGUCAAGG	-0.938
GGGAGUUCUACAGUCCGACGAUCCACAGACAACACGCACCCACACAAACACAGAGGGAAGGGGUUGGGAUGGGGACAGGGUGCACAGCAGGGCGGGGUAGGACCCCAGCCCCUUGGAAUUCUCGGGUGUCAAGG	-0.305
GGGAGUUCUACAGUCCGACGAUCUCAAGUCCUGUGCUACACAUCGUAUGUACCGAAUCGGGGUUGGGUUGGGGUUGGGAAAGUAUUAUGUUACGCCGUUCGGAUCUGCACUUCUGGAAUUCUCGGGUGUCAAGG	2.08
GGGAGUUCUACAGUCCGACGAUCCACAGACAACACGCACCCACACAGACACAGAGGGAAGGGGUUGGGAUGGGGAAAAGGUGCACAGCAGGGCGGGGUAGGACCCCAGCCCCUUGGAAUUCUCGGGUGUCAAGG	-0.273
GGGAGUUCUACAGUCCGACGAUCUCAAGUCCUGUGCUACACAUCGUAUGUACCGAAUCGGGGUUUGGUUUGGUUUGGGAAAGUAUUAUGUUACGCCGUUCGGAUCUGCACUUCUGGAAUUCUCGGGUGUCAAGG	-1.01
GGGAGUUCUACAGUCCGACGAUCGUCCUGUGCUACACAUCGUAUGUACCGAAUCGGGGAAAAAAAGGGGAAAGGGGUGGGGAAAGUAUUAUGUUACGCCGUUCGGAUCUGCACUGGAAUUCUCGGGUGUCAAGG	2

Sample 2
Target: RNA binding protein fox-1 homolog 2, RRM domain, GST-SBP tag (RBFOX2, Homo sapiens, UniProt O43251-10, residues 100-194)
Technique: RNA Bind-n-Seq
Molecule type: RNA
Sample: in vitro
Concentration: 365 nM
Setting: natural RNA segment, single round, ends assumed
Baseline: no-protein control
Direction: higher = stronger binding
Construct (chain): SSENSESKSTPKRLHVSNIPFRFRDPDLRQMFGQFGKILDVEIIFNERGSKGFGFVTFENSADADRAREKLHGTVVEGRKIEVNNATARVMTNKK
Strand	RBNS enrichment (R)
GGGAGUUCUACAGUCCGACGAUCACCGCUGGUGGUAAGUCUCCAGGAGGAGCCCAGGGCCCUCUGCCGCAAGAAACAGUGUGAGCUACUGCCACGCUGAAAACUACCUGUGGGUUAAGGAUGUAGUUCCUUUGUGGAAUUCUCGGGUGCCAA	0.258
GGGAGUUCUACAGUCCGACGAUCGCAGUACUAUUAAUGACCUCCCCAGGGCAGGCAUGAGUUGUGUCCUGAGUGGAACAUCUGGCCAUGCAUGGUUGUGAUGGGCCAUUGCUUUCGCUGCUUUAGAGCACCACUGGAAUUCUCGGGUGCCAA	10.6
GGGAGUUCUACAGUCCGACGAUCACCUUUUGUCCUUUGGGGCUGGGCACCUCCAGACCCUCUGUGUGUCCCUGUCAUCUGGGGAUGGGGAGGAAUUCAGGCCUGUUCACUUCCCCAGUUCUGUAGCAGCCGAUUGGAAUUCUCGGGUGCCAA	0.284
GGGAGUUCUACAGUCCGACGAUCGGGGGCAUAAACUUUAUUCCACUGGAGAAGCCCUGGGGGUGGCUGGAGCCAGCCUGCUGAGAAGCGUGGUGCAGCUGGGUCUGGGACUUCACUAGAGCUUACUCUGGAGCUGGAAUUCUCGGGUGCCAA	0.565
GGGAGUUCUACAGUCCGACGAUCGAUUGUCCAGUUCUGGUAAACAGUCUUCCAGUCAUCUCACAACCAUUAUUACAACCAUGUACAAAGGGACUCCACUCCACUGUCCCUGUACAAGGACUUUUGACAGUUUAUGGAAUUCUCGGGUGCCAA	0.444
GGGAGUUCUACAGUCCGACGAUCCUGCCCCCAGCUUUGCUUCUCACCAGCUCAUUAGGGCUCCCAGGUUAAAGUCCUUCAGUAUUUAUGGCCACCCCCACUCCAUGUGAGUCCACUUGGCUCUGUCCUCCCCAUGGAAUUCUCGGGUGCCAA	0.692
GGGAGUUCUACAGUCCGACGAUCUGAAAUAACUGCGAUUUUGUGAGCAAAACAUACUUGGAAAUGCUGAUUGAUUUUUAUGCUUGUUAGUGUAUUGCAAGAAACACAGAAAAUGUAGUUUUGUUUUAAUAAACUGGAAUUCUCGGGUGCCAA	0.81
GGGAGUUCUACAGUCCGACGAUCGUCGGUGGCUUAAAGUAACAUCUAUUUCCAUUGAUCCUAGGUUCUUCCUGACUGCUUUCUCCAACUGUUCACAGCAAAUGCUUGGAUUUUAUGCAGUAGGCAUUACUACAUGGAAUUCUCGGGUGCCAA	0.37
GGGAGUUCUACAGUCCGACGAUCUGGUGGUUUCUGUGAGAAUUGGCCAUCCUGAGGACACAGCCAGGACGGCAGAGGCCUCCUGGCCUCAGGGCAUGCCCUGCCUACCUUCUGAAAUGUUUACCCCAUUGACCUGGAAUUCUCGGGUGCCAA	0.445
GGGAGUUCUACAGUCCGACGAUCCCAGGCUCUAAAUAAUAGCCUCAGGUCAUCAGGGGGACAGACUGAGUGUCUGUGAUCACUAACAGGGAGUGGGCCUUGAGUCCACUCCAGAACUGUGGUGGGAGACCAAUUGGAAUUCUCGGGUGCCAA	0.383
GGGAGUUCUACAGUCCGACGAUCAAAAACUAUUAUUGAUGUAUUAAAAGAAAUUACGGUACCACGUUGAUUAGUCUGAAUGUUUGCAGGCAUUGGAAUAAAAUUUGACUUAUUUUUUCCCUCUUCCCCUGUCAUGGAAUUCUCGGGUGCCAA	0.413
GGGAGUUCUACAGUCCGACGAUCAGCUUAUUUCAGUAGUCAAGUUACCUGACAUGAUAAUUAUUUCUGCAGGAUAAUUGAUGUUUUAUGUUCUUUUUUGGACUUUAUCUUCUUGCAAAAAUUUCUACAAAAAUUGGAAUUCUCGGGUGCCAA	0.636

Sample 3
Target: Sal-like protein 4, full length isoform A (SALL4, Homo sapiens, UniProt Q9UJQ4, residues 1-1053)
Chain of UniProt Q9UJQ4 (whole entry, looked up): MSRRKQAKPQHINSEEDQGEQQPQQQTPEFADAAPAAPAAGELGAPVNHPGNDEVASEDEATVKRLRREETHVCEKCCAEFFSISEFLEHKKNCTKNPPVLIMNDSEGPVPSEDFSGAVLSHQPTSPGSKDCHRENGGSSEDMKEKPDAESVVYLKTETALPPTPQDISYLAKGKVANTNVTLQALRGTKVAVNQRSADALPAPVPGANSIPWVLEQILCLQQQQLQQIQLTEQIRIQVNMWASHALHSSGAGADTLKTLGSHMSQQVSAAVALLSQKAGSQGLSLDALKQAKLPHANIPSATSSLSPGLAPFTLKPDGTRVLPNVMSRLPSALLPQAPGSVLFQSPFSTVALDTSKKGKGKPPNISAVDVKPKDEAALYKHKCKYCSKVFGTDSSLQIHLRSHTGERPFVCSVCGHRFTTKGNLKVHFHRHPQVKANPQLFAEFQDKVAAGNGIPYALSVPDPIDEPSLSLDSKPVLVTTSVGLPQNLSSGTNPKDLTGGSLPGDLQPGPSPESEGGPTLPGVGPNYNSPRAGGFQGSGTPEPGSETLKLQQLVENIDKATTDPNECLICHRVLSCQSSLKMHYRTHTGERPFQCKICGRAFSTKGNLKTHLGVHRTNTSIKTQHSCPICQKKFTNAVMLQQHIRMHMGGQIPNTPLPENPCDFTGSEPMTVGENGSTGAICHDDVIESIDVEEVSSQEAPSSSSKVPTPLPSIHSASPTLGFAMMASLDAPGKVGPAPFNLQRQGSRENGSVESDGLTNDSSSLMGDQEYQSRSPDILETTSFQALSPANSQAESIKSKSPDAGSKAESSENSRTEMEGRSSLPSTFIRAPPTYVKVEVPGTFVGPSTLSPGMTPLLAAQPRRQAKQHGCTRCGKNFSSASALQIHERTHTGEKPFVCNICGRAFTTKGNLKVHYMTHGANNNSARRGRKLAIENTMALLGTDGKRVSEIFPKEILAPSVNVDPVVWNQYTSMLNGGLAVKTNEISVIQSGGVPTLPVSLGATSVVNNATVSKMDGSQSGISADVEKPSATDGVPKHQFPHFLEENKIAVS
Technique: universal PBM
Molecule type: double-stranded DNA, one strand shown
Sample: in vitro
Concentration: 600 nM
Setting: 8-mer, flanks averaged, mean of replicates
Direction: higher = stronger binding
Strand	E-score
CCTTTGCA	0.0092
AATGGTAG	0.208
AATGGTGC	-0.0707
CATGTCTA	0.182
CATCAGTA	0.187
AGCTCACT	-0.183
GCCAAAAC	-0.128
ACACGCAA	0.0183
AATACGGG	-0.0134
CGGCCGCA	-0.256
AAGTAGCA	0.0831

Other studies, line by line
Molecule	target	assay	test system	setting	scale	endpoint	result
PhoQ, residues 284 288 289 292 302 303 TLSLKA	PhoP, residues 12 14 15 18 19 NHTVL (Escherichia coli, UniProt P23836)	Sort-seq, item: YFP reporter	E. coli	PhoQ-PhoP variant library, together with: 10 µM Mg2+	baseline: high Mg2+ state, higher = stronger signaling	fold induction	0.691

A few entries again (sample 2):
Strand	RBNS enrichment (R)
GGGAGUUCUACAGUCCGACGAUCGUCGGUGGCUUAAAGUAACAUCUAUUUCCAUUGAUCCUAGGUUCUUCCUGACUGCUUUCUCCAACUGUUCACAGCAAAUGCUUGGAUUUUAUGCAGUAGGCAUUACUACAUGGAAUUCUCGGGUGCCAA	0.37
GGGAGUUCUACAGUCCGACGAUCUGAAAUAACUGCGAUUUUGUGAGCAAAACAUACUUGGAAAUGCUGAUUGAUUUUUAUGCUUGUUAGUGUAUUGCAAGAAACACAGAAAAUGUAGUUUUGUUUUAAUAAACUGGAAUUCUCGGGUGCCAA	0.81
